Measured values of several laboratories.
Numbered parts are unrelated; each lists some results of a single study. Changes are numbered by the printed parent chain.

Set 1
Target: CCNF, cyclin fold, Cln2 fusion (human)
Method: yeast growth competition, sequencing
Matrix: yeast
Setting: strong parent motif
Reference: not given
Direction: higher = stronger binding
Endpoint: normalised enrichment score
Starting sequence: SLBP docking peptide (human); ARYKRKLLINDFG
I9P: 1.71
L7C: 0.381
L7K: 0.284
L8S: 0.963
R2N: 2.73
A1N: 1.51
Y3N: 1.06
N10C: 1.76
K6M: 1.55
I9M: 2.79
F12D: 1.14
A1R: 1.64
F12S: 0.841
D11A: 2.5
F12E: 1.2
L7T: 0.849

Set 2
Target: RNA binding protein fox-1 homolog 2, RRM domain, GST-SBP tag (RBFOX2, Homo sapiens, UniProt O43251-10, residues 100-194)
Method: RNA Bind-n-Seq
Molecule type: RNA
Matrix: in vitro
Tested at: 365 nM
Setting: natural RNA segment, single round, ends assumed
Reference: no-protein control
Direction: higher = stronger binding
Endpoint: RBNS enrichment (R)
Residues (chain): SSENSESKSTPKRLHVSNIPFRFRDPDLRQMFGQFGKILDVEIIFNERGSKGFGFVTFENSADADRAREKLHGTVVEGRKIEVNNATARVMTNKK
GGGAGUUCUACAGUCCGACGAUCCAGAGGACAGCAGCAGCCACUGCCCUCACCUUUAACCCCUUGCCUUGCCUCCCAGGGAUUUGUGAGCCUUUCCUAGAAGGUCCUGUGCUCUCCUCCUUCUGUCCCCUCCCUGGAAUUCUCGGGUGCCAA: 2.27
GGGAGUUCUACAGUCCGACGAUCAAAAACCCUAUAUAUAUAUAUUAUAUAUAAAACAAUGUUCAUAGACAAUCUGAACUAUGUUUCUGAUGUGUGCACACUUUCCAUUUUAGUGCUAUUUUACAUCUGUUCGUUGGAAUUCUCGGGUGCCAA: 0.663
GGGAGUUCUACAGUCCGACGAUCGUUUUAGGUAACCCCUGUGAGAGGGUCGUUCCAUACUCCACCCCCCAGGGGUCACAACCUACAGGUUGAGAACUACUAUUCUAAAGGCUCAGCACUCUGCAGAGCACAGGUGGAAUUCUCGGGUGCCAA: 0.262
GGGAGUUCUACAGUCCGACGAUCUGUGUGACCAUAAAAUGCUGGGAGCAUUGAGUUUUGUAAUGAUUUAAUGGGUGAGGAUUGCUUUCUCCAUUAGAGCAUUAAGCUAUAACUAUCAACAUUGUAAACCAAAUUGGAAUUCUCGGGUGCCAA: 0.443
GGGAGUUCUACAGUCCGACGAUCGCGUGGAAUCACUUUCCAGGCCAGAGCCCUAGAGGGGUGCUGGUCUCCCUGCUUUGCUGUAUGGUGACCCCUAAUCCGCUUCUCUGGGCUCAGAUCUGUCCAAGGGCGGAUGGAAUUCUCGGGUGCCAA: 0.332
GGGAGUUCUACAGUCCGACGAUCGAUGUGGUUAAAAUUUUUGUAAUAUAUUUAAAUGUAUAUUUUUGAGAGAGAUACUACAUUGCCAAGGACUUUAUAAAUAAUCUUAAAUUAACUUACAAAUUUAUAAGAUGUGGAAUUCUCGGGUGCCAA: 0.757
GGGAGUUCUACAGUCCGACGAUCCAGGUCUCCUGGGAAAGGGAGAUGUCAGGAUGUUGCUCCAUCCUUUGUCUUGGAACCACCAGUCUAGUCCGUCCUGGCACAGAAGAGGAGUCAAGUAAUGGAGGUCCCAGUGGAAUUCUCGGGUGCCAA: 0.407
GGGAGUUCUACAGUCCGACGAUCAAGCGUGGGCGAGCAUUCUCCUCGGCAGCUCUGGGGGGGACAGAGCUAAGAGCACACAGAAUGGAUCUGACUGAGGGAGGAGACCACGGGAAAGCAAGGUUGCCUGGUAGUGGAAUUCUCGGGUGCCAA: 1.17
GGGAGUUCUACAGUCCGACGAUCACUAAAAGGACAUUUGAAAUCUUUACAUUUUAGAUGUUUUUGUGAAUUAUAAAUAUCUCCUUUUUCCUCGCUUCAUGCUAACUUGUCUCUAGAUAAAAUCUUAUUUCUUCUGGAAUUCUCGGGUGCCAA: 0.74
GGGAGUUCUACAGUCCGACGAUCUUAGUGCUGGAGUAAAAGGUCAAGUCCAACACCUGCCUUAAAUUUAAAUCAUGUGAUUUAUAGUUUUUAAGUUGGCAUAAUUCAACUUAUGGUAUAACUGGGUCCCUCAAUGGAAUUCUCGGGUGCCAA: 0.435
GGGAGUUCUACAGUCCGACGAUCAGACUACAGGAGUUAACAGAUGGCCAGCUCCUUAUUUUUUAAUGUAGAAUAACUCCUGAGUUUAUAUCAAAUCCUGAAGAAAUAAGCCUCAGUUUUCCAUCUGUUUUUGAUGGAAUUCUCGGGUGCCAA: 0.686
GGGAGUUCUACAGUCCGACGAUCAGCUCGUCUCUUCCUAGCAAGCAAAGGGUUAAAGAAGCCACCACCUGGGUGUCAGUGGGAAGGAGACAGCAGAGCUCAGGCUUUGCCCUUUGACAGAAACCUAAAGACACUGGAAUUCUCGGGUGCCAA: 0.437

Set 3
Target: UBE2V1 UBC core domain (UniProt Q13404)
Method: yeast two-hybrid
Matrix: yeast
Setting: mostly zero background
Reference: not given
Direction: higher = stronger interaction
Endpoint: lacZ reporter activity
B1: DEF8 RING domain (UniProt Q6ZN54); chain AGRLGCSLTEIHTLFAKHIKLDCERCQAKGFVCELCREGDVLFPFDSHTSVCADCSAVFHRDCYYDNSTTCPKCARLSLRK
B2: RNF183 RING domain (UniProt Q96D59); chain EQQGRELEAECPVCWNPFNNTFHTPKMLDCCHSFCVECLAHLSLVTPARRRLLCPLCRQPTVLASGQP
B3: RNF122 RING domain (UniProt Q9H9V4); chain AKKLQLYGQTCAVCLEDFKGKDELGVLPCQHAFHRKCLVKWLEVRCVCPMCNKPIASPSEAT
B4: RLIM RING domain (UniProt Q9NVW2); chain SFGENDALKTCSVCITEYTEGNKLRKLPCSHEYHVHCIDRWLSENSTCPICRRAVLASGNRE
B5: RNF187 RING domain (UniProt Q5TA31); chain ALPAGPAEAACALCQRAPREPVRADCGHRFCRACVVRFWAEEDGPFPCPECADDCWQRAVEP
Target sequence (chain): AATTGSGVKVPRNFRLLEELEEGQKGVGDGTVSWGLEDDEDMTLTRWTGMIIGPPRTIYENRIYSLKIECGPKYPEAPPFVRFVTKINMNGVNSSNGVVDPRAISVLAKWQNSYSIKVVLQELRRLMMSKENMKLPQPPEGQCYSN
B1 (DEF8 RING domain): 0
LGTKLEAKYLCSACRNVLRRPFQAQCGHRYCSFCLASILSSGPQNCAACVHEGIYEEGIS (TRAF2 RING domain (UniProt Q12933)): 0
B2 (RNF183 RING domain): 0
B3 (RNF122 RING domain): 0
B4 (RLIM RING domain): 0
LDAASGHPLVCPLCHGQYERPCLLDCFHDFCTGCLRGRATDGRLSCPLCQHQTLVKGPSG (Rnf207 RING domain (UniProt Q3V3A7)): 0
B5 (RNF187 RING domain): 0
QVQSRTKIEECVVCSDKKAAVLFQPCGHMCACENCANLMKKCVQCRAVVERRVPFI (MIB1 RING domain (UniProt Q86YT6)): 0
AEADPLGRFTCPVCLEVYEKPVQVPCGHVFCSACLQECLKPKKPVCGVCRSALAPGVRAV (RNF114 RING domain (UniProt Q9Y508)): 0

Set 4
Target: RING finger protein unkempt homolog, zinc fingers 1-6, GST-SBP tag (UNK, Homo sapiens, UniProt Q9C0B0, residues 30-357)
UniProt Q9C0B0, sequence (30-357, looked up): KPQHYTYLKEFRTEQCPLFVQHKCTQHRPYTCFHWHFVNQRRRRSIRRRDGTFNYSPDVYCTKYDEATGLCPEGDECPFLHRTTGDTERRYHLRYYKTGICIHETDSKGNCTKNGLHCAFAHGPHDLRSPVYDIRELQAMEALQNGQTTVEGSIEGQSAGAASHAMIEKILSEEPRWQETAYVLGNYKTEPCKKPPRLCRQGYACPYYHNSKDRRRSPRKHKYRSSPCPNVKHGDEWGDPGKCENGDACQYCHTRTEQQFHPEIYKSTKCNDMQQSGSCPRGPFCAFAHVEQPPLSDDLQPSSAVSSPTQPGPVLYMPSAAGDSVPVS
Method: RNA Bind-n-Seq
Molecule type: RNA
Matrix: in vitro
Tested at: not given
Setting: RNA with constant flanks, human and mouse sites, ends assumed
Reference: input RNA pool
Direction: higher = stronger binding
Endpoint: bound/input enrichment
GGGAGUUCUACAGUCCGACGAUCAAAGAUAGGCUCUAUUGUGAAAAGGAAAAUGACCCCAAACGACGCUCUUGUCAGACUGCAUUAGUUGAAAUUUUGGAUGUAAUAGUUCGUUCUUUUGCUCCCAUUCUUCCUCACCUGGCUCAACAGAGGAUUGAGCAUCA: 0.842 ratio
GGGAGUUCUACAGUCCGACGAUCGGCCAACCAAACCCUUUGAAAAAUAUUCUAAAUGAAAAUGACAUAGUAUUCAUAGUGGAAAAAGUGCCUUUAGAAAAGGAAGAAACAAGUCAUAUUGAAGAACUUCAAUCUGAAGAAACUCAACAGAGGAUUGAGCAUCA: 0.309 ratio
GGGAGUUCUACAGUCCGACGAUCAUCCCCCAGGAAUUGAACAACAUUACCAAGCUCAACGAACACUUCAGCAAAUUUGGAACCAUAGUUAAUAUCCAGGUUGCUUUUAAGGGUGAUCCAGAAGCAGCACUCAUCCAAUACCUUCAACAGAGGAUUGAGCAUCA: 0.429 ratio
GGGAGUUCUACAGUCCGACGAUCCCUCUCCCUCCAUCCCUCAAAAGAUCUUUAUGCAUUUCCCACUACUCCCUUACUGUCUUUUAGCAUUCAGAGAAAAAGCCAACUUGCUUAAAGAGGAAUCACUUAAAAGGUAGGCAUAUCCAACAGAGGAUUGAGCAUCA: 0.577 ratio
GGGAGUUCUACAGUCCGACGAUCAACCGUUAACAUCACUGCUGUGGCCUCAUACUCUUUUUUCCAUUUUCUACAAGAAGCCUUUUAGUAUAUGAAAAUUAUUACUCUUUUUGGGGUUUAAAGAAAUGGUCUGCAUAACCUGAACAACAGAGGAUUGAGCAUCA: 1.63 ratio
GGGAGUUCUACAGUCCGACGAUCGUACAGUAGACGAGGCUUCCUUGGAAUGGUUUGCCCCGCUGCAUUGGUUUGGGUUUAAGCUAGUUAUACUUCUGUCACUAUUCUAAGUUAAAUGCAAAACUUUCAAGUAGUUUUAAUGAACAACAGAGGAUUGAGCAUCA: 0.627 ratio
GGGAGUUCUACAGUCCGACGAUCGCUUGCCAGAAGAUGAUCUUAGAGUUGUUUUCUAAGGUGCCAUCCUUGGUAGGAAGCUUUAUUAGAAGCCAAAAUAAAGAAGACUAUGCUGGCCUAAAAGAAGAAUUUCGUAAAGAAUUUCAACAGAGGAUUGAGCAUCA: 0.417 ratio
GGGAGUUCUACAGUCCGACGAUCUCAGUUAAGUUGUCAGAAAACAUGAAGGCAUCUUCCUUUAAAAAGCUACAGAAGUUCUAUAUAGACCCAUACAAGCUGCUGCCGCUGCAGAGGUUUCUGCCUCGUCCUCCUGGUGAGAAACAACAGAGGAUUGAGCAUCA: 0.267 ratio
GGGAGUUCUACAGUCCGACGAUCGAAGAAUACUCCUUUGGUAGAUCAAAGAUAUUCAUCCGAAACCCAAGAACAUUAUUCAAAUUAGAAGACCUGAGGAAGCAACGCCUGGAGGACUUGGCCACUCUCAUUCAGAAGAUAUAUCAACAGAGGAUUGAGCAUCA: 1.12 ratio
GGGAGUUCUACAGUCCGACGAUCGCUGUGCUGGGAAACCAGAUUUUUAUCAUGGGUGGAGAUACAGAGUUCUCUGCCUGCUCCGCUUACAAAUUCAAUAGUGAGACUUACCAGUGGACCAAGGUGGGAGAUGUGACAGCCAAGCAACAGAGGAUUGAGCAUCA: 0.414 ratio
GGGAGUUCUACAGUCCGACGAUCCUAGGAAAGAAGUGGAUGGGAAUUGUAGGCAUAGAUUUCAUAUCAAGGGCAUUUCAAGACAGAAUUUUUAUUUCCUGUAGUAGGCUUGCUGGAGCAAAGGAAAUGUGCUGCUAAAAAUCACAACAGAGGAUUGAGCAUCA: 0.92 ratio

Repeated from above (set 2):
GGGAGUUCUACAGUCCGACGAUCGUUUUAGGUAACCCCUGUGAGAGGGUCGUUCCAUACUCCACCCCCCAGGGGUCACAACCUACAGGUUGAGAACUACUAUUCUAAAGGCUCAGCACUCUGCAGAGCACAGGUGGAAUUCUCGGGUGCCAA: 0.262
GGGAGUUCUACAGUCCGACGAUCUGUGUGACCAUAAAAUGCUGGGAGCAUUGAGUUUUGUAAUGAUUUAAUGGGUGAGGAUUGCUUUCUCCAUUAGAGCAUUAAGCUAUAACUAUCAACAUUGUAAACCAAAUUGGAAUUCUCGGGUGCCAA: 0.443
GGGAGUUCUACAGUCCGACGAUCGCGUGGAAUCACUUUCCAGGCCAGAGCCCUAGAGGGGUGCUGGUCUCCCUGCUUUGCUGUAUGGUGACCCCUAAUCCGCUUCUCUGGGCUCAGAUCUGUCCAAGGGCGGAUGGAAUUCUCGGGUGCCAA: 0.332
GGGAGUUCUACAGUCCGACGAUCGAUGUGGUUAAAAUUUUUGUAAUAUAUUUAAAUGUAUAUUUUUGAGAGAGAUACUACAUUGCCAAGGACUUUAUAAAUAAUCUUAAAUUAACUUACAAAUUUAUAAGAUGUGGAAUUCUCGGGUGCCAA: 0.757
